Measured values of several laboratories.
± gives the spread as reported.

CC(C)=CCC1=C([O-])C(=O)c2ccccc2C1=O.CC(C)=CCC1=C([O-])C(=O)c2ccccc2C1=O.O.O.[Zn+2].c1cnc2c(c1)ccc1cccnc12  apoptotic cells (A2780; annexin V/PI flow cytometry; half-cytotoxic concentration, 24 h): increased
COCC/N=C(\S)N/N=C(\C)c1ccccc1O  EC50 (LDR; silenced GFP reporter derepression, microscopy; overnight): 7 µM
COc1cc(CNC(=O)C[C@H](C)CCC=C(C)C)ccc1OCc1cn(-c2cccc(C(F)(F)F)c2)nn1  growth percent (OVCAR-5 ovarian cancer cells; SRB; 10 µM, 48 h): 97.5%
O=C1c2cccc3cccc(c23)C12NC(Cc1ccc(O)cc1)C([N+](=O)[O-])C2c1ccccc1 (centres unmarked)  necrotic cells (Jurkat; annexin V-FITC/PI flow cytometry; IC50, 24 h): 6%
CCN(CC)CC(=O)Nc1cccc(-n2cc(-c3ccc4ccc(-c5cn(-c6cccc(NC(=O)CN(CC)CC)c6)nn5)cc4c3)nn2)c1  HRE reporter activity (RCC4; luciferase reporter; 5 x IC50, 4 h, hypoxia; baseline: hypoxic untreated): 23.4%
CCCC[C@H](NC(=O)[C@H](Cc1ccccc1)NC(=O)[C@H](Cc1c[nH]cn1)NC(=O)CCNC(=O)[C@@H](NC(=O)[C@H](C)NC(=O)[C@H](Cc1c[nH]c2ccccc12)NC(=O)[C@H](CCC(N)=O)NC(=O)[C@H](N)Cc1ccc(O)cc1)C(C)C)C(N)=O  ROS generation (NCI-H1299; H2DCF fluorescence; 0.1 µM): increased
CC(C)(C)ONc1nc(Nc2ccnc(C(F)(F)F)c2)nc(-c2cccc(C(F)(F)F)n2)n1  inhibition (U-87 MG IDH2 R172K; 2-HG production; 0.2 µM, 72 h): 74.7%
COc1cc(CNC(=O)C[C@H](C)CCC=C(C)C)ccc1OCc1cn(-c2cccc([N+](=O)[O-])c2)nn1  growth percent (OVCAR-5 ovarian cancer cells; SRB; 10 µM, 48 h): 98%
CC1=CCC23OC2(C)CCC2C(CN(C)C)C(=O)OC2C13.Cl (centres unmarked)  proliferation (C6 rat glioma cells; 0.2 mg/mL, clonogenic; baseline: control): 10.3 ± 2.64%
COc1cc(CNC(=O)C[C@H](C)CCC=C(C)C)ccc1OCc1cn(-c2ccccc2)nn1  growth percent (OVCAR-5 ovarian cancer cells; SRB; 10 µM, 48 h): 69.2%
O=C(O)c1ccc(/C=C2\SC(=S)N(c3cccc(C(F)(F)F)c3)C2=O)cc1  NLRP3 and pro-IL-1β expression (mouse BMDM; concentration not given, before or after LPS, with: LPS): no effect
CC(=O)OC[C@H]1O[C@@H](Sc2sc(C(=O)c3ccc(C)cc3)c(N)c2-c2nc3ccccc3s2)[C@H](OC(C)=O)[C@@H](OC(C)=O)[C@H]1OC(C)=O  growth (SNB-19; SRB; 10 µM, 48 h; baseline: untreated): 88.2%
COc1ccc([C@@H]2CC(=O)c3c(O)cc(O[C@@H]4O[C@H](CO[C@@H]5O[C@@H](C)[C@H](O)[C@@H](O)[C@H]5O)[C@@H](O[C@H]5O[C@H](CO)[C@@H](O)[C@H](O)[C@H]5O)[C@H](O)[C@H]4O)cc3O2)cc1O  cell count (MRC5; trypan blue exclusion; 150 µg/mL, 24 h): 6250 ± 846
FC(F)(F)c1ccc(CNc2nc(NCc3ccccc3)c3ccccc3n2)cc1  GI50 (SW-403; cell growth or viability; 24 h): 3 µM
COc1cc(CNC(=O)C[C@H](C)CCC=C(C)C)ccc1O  growth percent (SNB-19 CNS cancer cells; SRB; 10 µM, 48 h): 95.3%
O=C(N=P12CN3CN(CN(C3)C1)C2)c1cccc[c]1[Pd].O=C(N=P12CN3CN(CN(C3)C1)C2)c1cccc[c]1[Pd]([Br])[Br]  selectivity ratio (human PBMC and Jurkat; cytotoxicity, MTT; baseline: PBMC over Jurkat): 26
C[C@@H](O)[C@H](NC(=O)[C@@H]1CSSC[C@H](NC(=O)[C@@H](Cc2ccccc2)NC(=O)CN2CCN(CC(N)=O)CCN(CC(N)=O)CCN(CC(N)=O)CC2)C(=O)N[C@@H](Cc2ccc(O)cc2)C(=O)N[C@H](Cc2c[nH]c3ccccc23)C(=O)N[C@@H](CCCCN)C(=O)N[C@@H]([C@@H](C)O)C(=O)N1)C(=O)O [lead-212 labelled]  concentration for complete cell death (AR-42J; fluorescein diacetate; concentration not given, 4 h exposure, 4 days): 800 nCi/mL
COc1ccc(NC(=O)COc2ccc(/C=C/C(C)=N/O)cc2OC)cc1  cells expressing IL-6 (SH-SY5Y; flow cytometry; 10 µM, with: amyloid-β 10 µM): 26.7%
O=Cc1c(O)ccc2ccccc12  log2 fold change (HUVEC; RNA sequencing, measured: SPX; 75 µM, 24 h; baseline: DMSO): 4.12
CO[C@@H]1[C@H](O)[C@@H](COP(=O)(O)OP(=O)([S-])OP(=O)(S)OC[C@H]2O[C@@H](n3cnc4c(=O)[nH]c(N)nc43)[C@H](O)[C@@H]2O)O[C@H]1n1c[n+](C)c2c(O)nc(N)nc21 (mixture of isomers)  relative translation efficiency (human immature dendritic cells; reporter gene; cap on electroporated luciferase mRNA; baseline: beta-S-ARCA D1 capped mRNA): 1.21 ± 0.15
Cc1ccc(C(C)C)cc1.O=C(N=P(c1ccccc1)(c1ccccc1)c1ccccc1)c1ccccn1.[Cl-].[Cl][Ru+]  invasion reduction (HCC1806; Transwell Geltrex invasion; IC20, 24 h; baseline: untreated): 70.7%
CO[C@H]1N(OC)c2ccccc2[C@@]12CN=C(Nc1cc(C(F)(F)F)cc(C(F)(F)F)c1)S2 (relative stereo)  S phase cells (HCT-116; PI flow cytometry; 40 µM, 48 h): 9.31 ± 2.54%
Brc1cccc(CNc2nc(NCc3ccccc3)c3ccccc3n2)c1  GI50 (SW-403; cell growth or viability; 24 h): 4.3 µM
CCCCN1C(=O)c2cccc3c(NCCCCCCN4CCOCC4)ccc(c23)C1=O  Pearson correlation coefficient (BHK-21; lysosome colocalization, confocal microscopy; 0.2 µM, with: LysoTracker Deep Red 0.3 µM): 0.88 ± 0.02
N=C(S)N/N=C/c1ncc(C(F)(F)F)cc1Cl  Emax (LDR; silenced GFP reporter derepression, microscopy; overnight; baseline: sodium butyrate): 42%
CC1=CC(C)=[N+]2C1=C(CCCC(=O)NCCCCCC(=O)NCCCC[C@H](NC(=O)N[C@@H](CCC(=O)O)C(=O)O)C(=O)O)c1c(C)cc(C)n1[B-]2(F)[18F] (some centres unmarked)  internalized fraction (LNCaP; PSMA-mediated internalization; 30 min, with: 2-PMPA blocking): 2.17%
Oc1ccccc1-c1nn(-c2ccccn2)[n+](-c2ccccc2)n1.[Br-]  dead cells (A2780; LIVE/DEAD flow cytometry; 40 µM, 48 h, with: holo-transferrin 50 µM): 6.2%
COc1ccc(CC2COC(=O)C2Cc2ccc3c(c2)OCO3)cc1OC (mixture of isomers)  protein level (A2780; western blot, measured: Bax; IC50, 48 h; baseline: 0 h): increased
Cc1ccc(C(C)C)c(OCc2ccc(C(=O)N/N=C/c3cccc(O)c3O)cc2)c1  Emax (LDR; silenced GFP reporter derepression, microscopy; overnight; baseline: sodium butyrate): 23%
Nc1cccc(S(=O)(=O)N2CCCN(S(=O)(=O)c3ccc4c(c3)OCCO4)CC2)c1  glucose carbon into lipids (H1299; 14C-glucose; 30 µM, 2 h): decreased
COc1cc(CNC(=O)C[C@H](C)CCC=C(C)C)ccc1OCc1cn(-c2ccc(Br)cc2)nn1  growth percent (OVCAR-5 ovarian cancer cells; SRB; 10 µM, 48 h): 105%
C[C@@H](O)[C@H](NC(=O)[C@@H]1CSSC[C@H](NC(=O)[C@@H](Cc2ccccc2)NC(=O)CN2CCN(CC(=O)O)CCN(CC(=O)O)CCN(CC(=O)O)CC2)C(=O)N[C@@H](Cc2ccc(O)cc2)C(=O)N[C@H](Cc2c[nH]c3ccccc23)C(=O)N[C@@H](CCCCN)C(=O)N[C@@H]([C@@H](C)O)C(=O)N1)C(=O)O  internalized fraction of cell activity (AR-42J; radioligand uptake; concentration not given, 4 h): 53.1 ± 1.83%
COc1cc(CNC(=O)C[C@H](C)CCC=C(C)C)ccc1OCc1cn(-c2cccc(Cl)c2)nn1  growth percent (OVCAR-5 ovarian cancer cells; SRB; 10 µM, 48 h): 72.3%
Cc1nn(-c2ccc(S(=O)(=O)N[C@@H](CO)CC(C)C)cc2)c2nn3nnnc3nc12  apoptotic cells (HT-29; AO/EB staining; 1 µM, 24 h): 27.5 ± 4.24%
COc1cc(N2CCN(C(=O)C3CCCN3)CC2)ccc1Nc1ncc(Cl)c(Nc2ccccc2P(C)(C)=O)n1 (centres unmarked)  time to growth inhibition (Ba/F3 EML4-ALK; cell proliferation, CCK-8 time course; 1 µM): 3 h
Cc1noc(NS(=O)(=O)c2ccc(NC(=O)c3cc(-c4ccc5ccccc5c4)nc4ccccc34)cc2)c1C  inhibition (mouse spleen cells; cell proliferation, MTT; 1 µM, 72 h, with: concanavalin A 5 µg/mL): 20.8 ± 8.41%
Cc1cc(CNCCCCCC(=O)NO)ccc1OCc1cccc(-c2ccccc2)c1C  mRNA level (mouse M1 macrophages; measured: Socs3; concentration not given): decreased
C#CCN(CC(=O)O[C@H]1[C@H](C)O[C@@H](O[C@H]2[C@H](N(C)C)[C@@H](O)[C@H](O[C@H]3[C@@H](CC=O)C[C@@H](C)[C@@H](O[C@H]4CC[C@H](N(C)C)[C@@H](C)O4)/C=C/C=C/C[C@@H](C)OC(=O)C[C@@H](O)[C@@H]3OC)O[C@@H]2C)C[C@@]1(C)O)C(=O)c1ccc(C(F)(F)F)cc1  phospho-p38 level (HGC-27; Western blot; 0.10, 0.45, 0.90 µM, 24 h): increased
O=C(/C=C/C=C/c1ccc2c(c1)OCO2)NC(Cc1c[nH]c2ccccc12)C(=O)O (centres unmarked)  mRNA level (HL-7702 (L-02) hepatocytes; RT-qPCR, measured: PPARγ; 100 µM; baseline: untreated): 1.9 fold
C[N+]1(CC(=O)OC2CCCCCCCCCCC2)CCCCC1  ED90 (LNCaP; cell viability, CellTiter Blue; 96 h): 20.4 µM
Cc1noc(NS(=O)(=O)c2ccc(NC(=O)c3cc(-c4cccc(Cl)c4)nc4ccccc34)cc2)c1C  inhibition (mouse spleen cells; cell proliferation, MTT; 1 µM, 72 h, with: concanavalin A 5 µg/mL): 14.1 ± 9.97%

For quick reference, copied from above:
CCN(CC)CC(=O)Nc1cccc(-n2cc(-c3ccc4ccc(-c5cn(-c6cccc(NC(=O)CN(CC)CC)c6)nn5)cc4c3)nn2)c1  HRE reporter activity (RCC4; luciferase reporter; 5 x IC50, 4 h, hypoxia; baseline: hypoxic untreated): 23.4%
C[C@@H](O)[C@H](NC(=O)[C@@H]1CSSC[C@H](NC(=O)[C@@H](Cc2ccccc2)NC(=O)CN2CCN(CC(=O)O)CCN(CC(=O)O)CCN(CC(=O)O)CC2)C(=O)N[C@@H](Cc2ccc(O)cc2)C(=O)N[C@H](Cc2c[nH]c3ccccc23)C(=O)N[C@@H](CCCCN)C(=O)N[C@@H]([C@@H](C)O)C(=O)N1)C(=O)O  internalized fraction of cell activity (AR-42J; radioligand uptake; concentration not given, 4 h): 53.1 ± 1.83%
O=C1c2cccc3cccc(c23)C12NC(Cc1ccc(O)cc1)C([N+](=O)[O-])C2c1ccccc1 (centres unmarked)  necrotic cells (Jurkat; annexin V-FITC/PI flow cytometry; IC50, 24 h): 6%
Cc1ccc(C(C)C)cc1.O=C(N=P(c1ccccc1)(c1ccccc1)c1ccccc1)c1ccccn1.[Cl-].[Cl][Ru+]  invasion reduction (HCC1806; Transwell Geltrex invasion; IC20, 24 h; baseline: untreated): 70.7%
COc1cc(CNC(=O)C[C@H](C)CCC=C(C)C)ccc1OCc1cn(-c2cccc(Cl)c2)nn1  growth percent (OVCAR-5 ovarian cancer cells; SRB; 10 µM, 48 h): 72.3%
CCCCN1C(=O)c2cccc3c(NCCCCCCN4CCOCC4)ccc(c23)C1=O  Pearson correlation coefficient (BHK-21; lysosome colocalization, confocal microscopy; 0.2 µM, with: LysoTracker Deep Red 0.3 µM): 0.88 ± 0.02
COc1cc(CNC(=O)C[C@H](C)CCC=C(C)C)ccc1OCc1cn(-c2ccc(Br)cc2)nn1  growth percent (OVCAR-5 ovarian cancer cells; SRB; 10 µM, 48 h): 105%
